# Experimental data from different studies.
# Numbers after ± are the reported error.
SMILES,cell line,assay,setting,IC50
CC(C)c1cccc(C(C)C)c1-n1c2c([n+](-c3c(C(C)C)cccc3C(C)C)[c]1[Au-][Cl])-c1cccc3cccc-2c13,CHO,"cell growth or viability, MTT",72 h,> 50 µM
C=C(C)[C@@H]1CC[C@]2(C(=O)O)CC[C@]3(C)[C@H](CC[C@@H]4[C@@]5(C)CC[C@H](O[C@@H]6O[C@@H](C)[C@H](O)[C@@H](O)[C@H]6OC)C(C)(C)[C@@H]5CC[C@]43C)[C@@H]12,human Skin fibroblast,cell growth or viability,48 h,22 µM
N#Cc1c(F)c(Cl)c2nc(SCC3CCCO3)nc(N)c2c1F (stereo not drawn),SGC-7901,"cell growth or viability, MTT",96 h,5.45 µM
Cc1cc(C=O)cc(C)c1Oc1cc(Nc2ccc(C#N)cn2)nc2ccncc12,H69AR (multidrug resistant),,48 h,> 126 µM
CCOC(=O)C1=C(C)NC(=O)N[C@@H]1/C=C/c1ccc(OC)cc1,FR2,"cell growth or viability, MTT",24 h,> 70 µM
CN(C)CCCS(=O)(=O)NC12CCCC(C)(CCC3C1CC3(C)C)C2 (stereo not drawn),NCM460,"cell growth or viability, CCK-8",72 h,22.7 µM
C=C(C)[C@@H]1CC[C@]2(C(=O)OCO/N=[N+](\[O-])N3CCCC3)CC[C@]3(C)[C@H](CC[C@@H]4[C@@]5(C)CC[C@H](OC(C)=O)C(C)(C)[C@@H]5CC[C@]43C)[C@@H]12,HELF,"cell growth or viability, MTT",72 h,17.8 µM
N#Cc1cccc(-c2ccc(=O)n(Cc3cccc(-c4ncc(OCC5CCN(CC(=O)NCCOCCNc6cccc7c6C(=O)N(C6CCC(=O)NC6=O)C7=O)CC5)cn4)c3)n2)c1 (stereo not drawn),Hs746T,"cell growth, CCK-8",72 h,0.0247 ± 0.0113 µM
Cc1ccc(-n2cc(CSc3nc4ccccc4n3Cc3cn(-c4ccc(C)cc4)nn3)nn2)cc1,Caco-2,"cell growth or viability, MTT",,43.9 µg/mL
[Cl][Cu-][c]1n(-c2c(C(c3ccccc3)c3ccccc3)cc(C(c3ccccc3)c3ccccc3)cc2C(c2ccccc2)c2ccccc2)c2c([n+]1-c1c(C(c3ccccc3)c3ccccc3)cc(C(c3ccccc3)c3ccccc3)cc1C(c1ccccc1)c1ccccc1)-c1cccc3cccc-2c13,CHO,"cell growth or viability, MTT",72 h,> 50 µM
COc1cc2c(cc1OC)-c1nc(NN=C(Cc3ccccc3[N+](=O)[O-])C(=O)O)sc1CO2 (mixture of isomers),CRL-2351,"cell growth, sulforhodamine B",5 days,> 20 µM
CCC1=C(CC)C2=[N+]3C1=Cc1c(CC)c(CC)c4[n]1[Ir-3]31([C]#[N+]c3ccc(OC)cc3)([C]#[N+]c3ccc(OC)cc3)[n]3c(c(CC)c(CC)c3=CC3=[N+]1C(=C4)C(CC)=C3CC)=C2.F[B-](F)(F)F,HCC827,"cell growth or viability, MTT",72 h,50 µM
CCCCCCCCC=CCCCCCCCC(=O)OCC1OC(n2ccc(N)nc2=O)C(F)(F)C1O (stereo not drawn),L1210/L5 (mouse),"cell growth, cell counting",72 h,0.0033 ± 0.0019 µM
O=c1ccn([C@@H]2O[C@H](CSSC[C@H]3O[C@@H](n4ccc(=O)[nH]c4=O)[C@H](O)[C@@H](F)[C@@H]3O)[C@@H](O)[C@H](F)[C@H]2O)c(=O)[nH]1,FM3A,cell growth or viability,,123 µM
CC1=NN(C(N)=S)C(c2ccccc2)C1 (stereo not drawn),human Skin fibroblast,"cell growth or viability, LDH",48 h,18.2 µM
C=CC(=O)N1CCCC(n2c(=O)c3ncccc3n(Cc3ccc(Oc4ccccc4)cc3)c2=O)C1 (stereo not drawn),RPMI-8226 carfilzomib-resistant,"cell proliferation, MTT",72 h,2.5 µM
O=C1c2ccc3c4cccc5c(N6CCNCC6)ccc(c6ccc(c2c36)C(=O)N1CCN1CCCCC1)c54,"A549, PC-3, HL-60","cytotoxicity, SRB","72 h, range over three lines",36.9 to 50.9 µM
Cc1ccc(NC(=O)c2c(C)oc3ccc(O)c(CN4CCCCCC4)c23)cc1,AMO1,"cell growth or viability, MTS",72 h,11.3 µM
CCn1c2ccccc2c2cc(C(O)c3cccc4ncccc34)ccc21 (stereo not drawn),sample A patient-derived glioma cells,tumour microtube number per cell,24 h,0.036 µM
CC/C(=C(\c1ccc(O)cc1)c1ccc(OCCN(C)CCOCCOCCOCCOCCOCCOCCOCCN(C)CCOc2ccc(/C(=C(/CC)c3ccccc3)c3ccc(O)cc3)cc2)cc1)c1ccccc1,MDA-MB-231 (ER-negative),cell growth,96 h,0.69 µM
CCCC(CCC)C(=O)[O][Pt]([NH2])([NH2])([Cl])([Cl])[O]C(=O)c1ccccc1OC(C)=O,six human cancer lines,"cytotoxicity, MTT",,1.18 µM
COc1ccc(C[C@H]2COC(=O)[C@@H]2Cc2ccc(OCCCCCCCCC(=O)NO)c(OC)c2)cc1OC,KU812,"cell growth or viability, CCK-8",48 h,3.72 µM
COC(=O)[C@H]1[C@H]2C[C@H]3O[C@@]4(CCN3C[C@H]2C[C@@H](OC(=O)c2cc(OC)c(OC)c(OC)c2)[C@@H]1OC)C(=O)Nc1cc(OC)c(-c2ccc(F)cc2)cc14,SUP-T1,"cell growth or viability, trypan blue",72 h,7.01 µM
CC(C)C1OC(=O)C(NC(=O)c2cccc(O)c2)C(C)OC(=O)C(C(C)C)OC(=O)C(C)(C)C(=O)C(Cc2ccccc2)OC1=O (stereo not drawn),NCM460,"cell growth or viability, CCK-8",72 h,> 50 µM
O=C(Nc1ccc(-c2noc(C3CC3)n2)c(Cl)c1)c1cccs1,MRC5 lung fibroblasts,"cytotoxicity, LDH release",,> 30 µM
Cc1cn([C@@H]2O[C@H](CSSC[C@H]3O[C@@H](n4cc(C)c(=O)[nH]c4=O)[C@H](O)[C@@H](F)[C@@H]3O)[C@@H](O)[C@H](F)[C@H]2O)c(=O)[nH]c1=O,FM3A,cell growth or viability,,> 500 µM
N#Cc1c(F)c(F)c2nc(SCc3ccc4ccccc4c3)nc(N)c2c1F,SGC-7901,"cell growth or viability, MTT",96 h,5.89 µM
CCC(C)C1OC(=O)C(C)(C)C(O)C(Cc2ccccc2)OC(=O)C(C(C)C)OC(=O)C(NC(=O)c2cccc(O)c2)C(C)OC1=O (stereo not drawn),NCM460,"cell growth or viability, CCK-8",72 h,> 50 µM
COc1cc(/C=N/NC(=O)c2cc3cc(Nc4nccc(-c5cccnc5)n4)ccc3[nH]2)cc(OC)c1,LO2,"cell viability, MTT",48 h,> 50 µM
C[N+]1(C)CC[NH2+][Pt-2]1([OH])([Cl])([Cl])[O]C(=O)CCC(=O)OCCO,SW1573,cell growth or viability,96 h,134 µM
O=C(NO)c1ccc(Cn2sc3ccccc3c2=O)cc1,U-266,"cell growth or viability, ATP luminescence",72 h,14.5 µM
Cc1nc(-c2ccc(Cl)cc2)nc(N2CCC(C)(N)CC2)c1Cc1ccccc1,AGS,"cell growth or viability, WST-1",72 h,6.5 µM
CC12CCCC(n3cc(C(=O)N4CC(N)C4)nn3)(C1)C1CC(C)(C)C1CC2 (stereo not drawn),NCM460,"cell growth or viability, CCK-8",72 h,18.7 µM
C#CCOc1cc(C(=O)C2=C(C)C(=O)c3ccccc3C2=O)ccc1C(F)(F)F,MRC-5,cytotoxicity,,29.4 µM
CC(=O)Oc1cc2c(cc1C(C)C)C1(CC3C(C)(CN4C(=O)c5c(Cl)c(Cl)c(Cl)c(Cl)c5C4=O)CCCC23C)C23c4c5c6c7c8c9c(c%10c%11c2c2c4c4c%12c5c5c6c6c8c8c%13c9c9c%10c%10c%11c%11c2c2c4c4c%12c%12c5c5c6c8c6c8c%13c9c9c%10c%10c%11c2c2c4c4c%12c5c6c5c8c9c%10c2c45)C713 (stereo not drawn),U-937,"cell growth or viability, MTT",48 h,> 30 µM
N[C@@H](CCC(=O)N[C@@H](CS[Se]Cc1ccc(-c2cc(C(F)(F)F)nn2-c2ccc(S(N)(=O)=O)cc2)cc1)C(=O)NCC(=O)O)C(=O)O,FF2441 human fibroblasts,"cell viability, MTS",48 h,75.5 ± 5.6 µM
Cc1cc(O)cc(O)c1C(=O)c1c2c3c(c(O)cc(C)c3oc1=O)C(=O)c1c(O)cc(O)cc1-2,human cancer cell lines,"cell growth, SRB",72 h,2.37 to 7.07 µM
COc1ccc(CN2C[C@H](O)[C@H](O)[C@@H]2CO)cc1,HCT116 p53-/-,MTS,72 h,> 200 µM
N#Cc1cccc(-c2ccc(=O)n(Cc3cccc(-c4ncc(OCC5CCN(CCCC(=O)Nc6cccc7c6C(=O)N(C6CCC(=O)NC6=O)C7=O)CC5)cn4)c3)n2)c1 (stereo not drawn),Hs746T,"cell growth or viability, CCK-8",72 h,0.0658 µM
CN1CCCNC(=O)CCC(=O)NCCCN(C)CCCNc2cccc3c2C(=O)c2cccc(c2C3=O)NCCC1,ASF-4-4L2,"cell proliferation, CCK-8",48 h,8.2 µM
COc1cc(-c2cc(=O)c3c(O)cc(OC4OC(COC5OC(C)C(O)C(O)C5O)C(O)C(O)C4O)cc3o2)ccc1O (stereo not drawn),HCT-116 p53+/+,"cell viability, resazurin reduction",72 h,> 100 µM
CC/C(=C(\c1ccc(O)cc1)c1ccc(OCCN(C)CCOCCN(C)CCOc2ccc(/C(=C(/CC)c3ccccc3)c3ccc(O)cc3)cc2)cc1)c1ccccc1,MDA-MB-231 (ER-negative),cell growth,96 h,> 20 µM
CC(C)=CCC1=C([O-])C(=O)c2ccccc2C1=O.CC(C)=CCC1=C([O-])C(=O)c2ccccc2C1=O.[Cu+2].c1ccc(-c2ccccn2)nc1,HOS,"cell viability, MTT",24 h,31.9 ± 3.1 µM
C=C1C(=O)OC2C1CCC1(C)CC1CCC1(C)OC21 (stereo not drawn),"B140H murine AML, cytarabine-resistant","cell growth, inhibitor",,5.9 ± 2.4 µM
N#Cc1c(-c2cccs2)cc(-c2cccc3ccccc23)n2c(Cc3ccccc3)nnc12,U-937,"cell growth or viability, MTT",72 h,1.99 µM
Cc1cc(C=O)cc(C)c1Oc1cc(Nc2ccc(C#N)cc2)nc2cnccc12,H69AR (multidrug resistant),,48 h,> 127 µM
CCCC(CCC)C(=O)[O][Pt]([Cl])([Cl])[O]C(=O)C(CCC)CCC.N.N,seven cancer cell lines,cytotoxicity,mean over panel,1.4 µM
O=S(=O)([O-])[O-].[Cu+2].c1ccc(-c2nnc(-c3ccc4c(c3)OCO4)[nH]2)nc1,T24,"cell growth or viability, MTT",24 h,5.46 µM
Cc1c(C(=O)NNC(=S)Nc2ccc(Cl)cc2)nnn1Cc1nc2ccccc2[nH]1,"HepG2, HCT-116, MCF7, HeLa","cell viability, MTT","48 h, range over cell lines",1 to 10 µM
N#Cc1cccc(-c2ccc(=O)n(Cc3cccc(-c4ncc(OCC5CCN(CCCCCCCCC(=O)Nc6cccc7c6C(=O)N(C6CCC(=O)NC6=O)C7=O)CC5)cn4)c3)n2)c1 (stereo not drawn),Hs746T,"cell growth or viability, CCK-8",72 h,0.103 µM
C=C1CC(O)CC(C)=CCC2C1CC2(C)O (stereo not drawn),KPC,"cell viability, CCK-8",72 h,> 50 µM

# Excerpt of the above:
SMILES,cell line,assay,setting,IC50
CC1=NN(C(N)=S)C(c2ccccc2)C1 (stereo not drawn),human Skin fibroblast,"cell growth or viability, LDH",48 h,18.2 µM
CCC(C)C1OC(=O)C(C)(C)C(O)C(Cc2ccccc2)OC(=O)C(C(C)C)OC(=O)C(NC(=O)c2cccc(O)c2)C(C)OC1=O (stereo not drawn),NCM460,"cell growth or viability, CCK-8",72 h,> 50 µM
CCCCCCCCC=CCCCCCCCC(=O)OCC1OC(n2ccc(N)nc2=O)C(F)(F)C1O (stereo not drawn),L1210/L5 (mouse),"cell growth, cell counting",72 h,0.0033 ± 0.0019 µM
N[C@@H](CCC(=O)N[C@@H](CS[Se]Cc1ccc(-c2cc(C(F)(F)F)nn2-c2ccc(S(N)(=O)=O)cc2)cc1)C(=O)NCC(=O)O)C(=O)O,FF2441 human fibroblasts,"cell viability, MTS",48 h,75.5 ± 5.6 µM
Cc1c(C(=O)NNC(=S)Nc2ccc(Cl)cc2)nnn1Cc1nc2ccccc2[nH]1,"HepG2, HCT-116, MCF7, HeLa","cell viability, MTT","48 h, range over cell lines",1 to 10 µM
N#Cc1cccc(-c2ccc(=O)n(Cc3cccc(-c4ncc(OCC5CCN(CCCCCCCCC(=O)Nc6cccc7c6C(=O)N(C6CCC(=O)NC6=O)C7=O)CC5)cn4)c3)n2)c1 (stereo not drawn),Hs746T,"cell growth or viability, CCK-8",72 h,0.103 µM
COc1cc(/C=N/NC(=O)c2cc3cc(Nc4nccc(-c5cccnc5)n4)ccc3[nH]2)cc(OC)c1,LO2,"cell viability, MTT",48 h,> 50 µM
[Cl][Cu-][c]1n(-c2c(C(c3ccccc3)c3ccccc3)cc(C(c3ccccc3)c3ccccc3)cc2C(c2ccccc2)c2ccccc2)c2c([n+]1-c1c(C(c3ccccc3)c3ccccc3)cc(C(c3ccccc3)c3ccccc3)cc1C(c1ccccc1)c1ccccc1)-c1cccc3cccc-2c13,CHO,"cell growth or viability, MTT",72 h,> 50 µM
